Experimental data pooled from the literature.
Parts stem from different laboratories: compare values within a part only.

Series 1
Target: Prothrombin, mature alpha-thrombin (F2, Homo sapiens, UniProt P00734)
Technique: aptamer microarray, sandwich
Molecule type: DNA with 2'F-ANA
Medium: in vitro
Tested at: 200 nM
Notes: whole 15-mer aptamer, many near background
Together with: Cy3 exosite-II aptamer, 400 nM
Reading: higher = stronger binding
Strand: GGTTGGTGTGGTTGG
Modification	mean fluorescence intensity
2'F-ANA at 2 4 6 9 10 12 13 14	61.4 a.u.
2'F-ANA at 1 2 3 4 5 6 9 11 12 15	82.7 a.u.
2'F-ANA at 2 3 5 7 8 9 10 11 12	77.7 a.u.
2'F-ANA at 3 5 8 11 12 15	195 a.u.
2'F-ANA at 1 2 3 7 8 9 10 11 12	94.6 a.u.
2'F-ANA at 4 9 15	283 a.u.
2'F-ANA at 2 3 4 6 7 9 11 13 14	173 a.u.
2'F-ANA at 1 2 3 4 5 6 7 9 11 13	51.6 a.u.
2'F-ANA at 1 4 6 8 9 11 12 15	217 a.u.
2'F-ANA at 5 13 15	58 a.u.
2'F-ANA at 1 3 8 10 11 14 15	65 a.u.
2'F-ANA at 2 3 5 6 8 11 13 14	52.5 a.u.
2'F-ANA at 2 3 5 6 11 14	274 a.u.
2'F-ANA at 2 4 5 7 8 10 11 12 13 14 15	86.9 a.u.
2'F-ANA at 1 4 5 6 10 14 15	48.2 a.u.
2'F-ANA at 4 5 6 7 9 12 13 15	72.2 a.u.
2'F-ANA at 3 6 8 9 10 11 12 13 14	339 a.u.
2'F-ANA at 5 7 13 14	43.6 a.u.
2'F-ANA at 5 6 8 9 10 11 12 13	91.2 a.u.
2'F-ANA at 3 5 6 7 9 11 12 13 14	54.1 a.u.
2'F-ANA at 1 2 4 6 7 9 11 13	70.3 a.u.
2'F-ANA at 5 6 7 8 13 14	41.9 a.u.
2'F-ANA at 1 2 4 12 13	210 a.u.

Series 2
Target: Sal-like protein 4, full length isoform B (SALL4, Homo sapiens, UniProt Q9UJQ4-2, residues 1-616)
Technique: universal PBM
Molecule type: double-stranded DNA, one strand shown
Medium: in vitro
Tested at: not given
Notes: 8-mer, flanks averaged, mean of replicates
Reading: higher = stronger binding
Strand	E-score
AGTAACTA	0.126
AATCAAAG	0.0368
CGCCTTCC	-0.235
GAAGGCGA	-0.234
GACCTTTA	0.0919
TGAGCGAA	-0.0583
AACTAGTT	0.242
AGACGTGC	-0.0403
CTTCGGAA	0.0756
CTGGAAAA	0.0693
GAATGTGC	0.0358
CCAGGTGC	-0.224
TGTCCAAA	0.132
CTCCAGAC	0.0304
AAGTCGAC	0.124
AGAACCCA	-0.144
GATTTGCA	0.141

Series 3
Target: Ras GTPase-activating protein-binding protein 1, full length (G3BP1, Homo sapiens, UniProt Q13283)
UniProt Q13283, sequence (whole entry, looked up): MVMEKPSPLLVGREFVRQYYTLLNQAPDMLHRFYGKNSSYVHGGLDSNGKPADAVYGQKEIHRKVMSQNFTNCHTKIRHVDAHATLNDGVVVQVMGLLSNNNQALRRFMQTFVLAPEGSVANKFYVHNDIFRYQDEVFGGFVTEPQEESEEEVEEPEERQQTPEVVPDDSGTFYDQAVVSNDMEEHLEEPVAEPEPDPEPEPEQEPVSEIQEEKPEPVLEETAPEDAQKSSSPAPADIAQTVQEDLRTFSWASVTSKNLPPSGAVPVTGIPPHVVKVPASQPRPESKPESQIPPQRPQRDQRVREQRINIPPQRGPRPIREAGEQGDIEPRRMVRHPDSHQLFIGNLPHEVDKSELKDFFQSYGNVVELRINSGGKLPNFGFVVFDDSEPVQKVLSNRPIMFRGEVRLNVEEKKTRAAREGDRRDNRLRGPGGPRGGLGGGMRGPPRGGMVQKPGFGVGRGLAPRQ
Technique: RNA Bind-n-Seq
Molecule type: RNA
Medium: in vitro
Tested at: 200 nM
Notes: whole 134-nt RNA, ends assumed
Together with: 150 mM LiCl
Baseline: input library
Reading: higher = stronger binding
Library: 7-deaza-guanosine replaces G
Constant ends, left off below: GGGAGUUCUACAGUCCGACGAUC … UGGAAUUCUCGGGUGUCAAGG
Strand	log2 enrichment
UAACUUUAGAGGAGGAUCUGAUGGAUAUGGCAGUGGACGUGGAUUUGGGGAUCGCUAUAAUGGGUAUGGAGGAGGACCUGGAGGUGGCAA	-0.41
CUCAAGUCCUGUGCUACACAUCGUAUGUACCGAAUCGGUUUUUUUGGAGGAGGAAAGUAUUAUGUUACGCCGUUCGGAUCUGCACUUCCA	0.471
CAAGUCCUGUGCUACACAUCGUAUGUACCGAAUCGGAAAAAGGAAAAAAAGGAGGAAAGUAUUAUGUUACGCCGUUCGGAUCUGCACUUC	-0.616
UCAAGUCCUGUGCUACACAUCGUAUGUACCGAAUCGGGAAAAAGGGAGGGUGGGAAAGUAUUAUGUUACGCCGUUCGGAUCUGCACUUCC	-0.315
CACAGACAACACGCACCCACACAGACACAGAGGGAAGGGGUUGAGAUGGGGACAGGGUGCACAGCAGGGCGGGGUAGGACCCCAGCCCCU	-0.932
GCAGGAAGUAAAAACGAAUGGAAAUGCUUCGGAUAGUGGCAGGGGUGGGGGUUGCUAAGGAAAGGGUGGGAUGGGAGUGGGUAAAGAGUU	-0.136
UCCUGUGCUACACAUCGUAUGUACCGAAUCGGGGAAAAAGGGGUUUGGGGAAAAAGGGGAAAGUAUUAUGUUACGCCGUUCGGAUCUGCA	-0.991
AAAAUUUCCAGUACCUUUGUCACAAUCCUAACACAUUAUCGGGAGCAGUGUCUUCCAUAAUGUAUAAAGAACAAGGUAGUUUUUACCUAC	-0.731

Series 4
Target: RNA binding protein fox-1 homolog 2, RRM domain, GST-SBP tag (RBFOX2, Homo sapiens, UniProt O43251-10, residues 100-194)
Technique: RNA Bind-n-Seq
Molecule type: RNA
Medium: in vitro
Tested at: 365 nM
Notes: natural RNA segment, single round, ends assumed
Baseline: no-protein control
Reading: higher = stronger binding
Constant ends, left off below: GGGAGUUCUACAGUCCGACGAUC … UGGAAUUCUCGGGUGCCAA
Residues (chain): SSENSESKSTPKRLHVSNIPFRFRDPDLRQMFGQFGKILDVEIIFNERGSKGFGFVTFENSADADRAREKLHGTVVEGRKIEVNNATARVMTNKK
Strand	RBNS enrichment (R)
GGGCAUUCACAACUCUUGAGUUUGGUGUUCAGGCAUCAUUAUUAAAAAGUGGAGUCCUAUGUACCAGACUGAGUUUUUACAAAUGAUUUGCAGGCUAGACAUAACCCACU	0.3
CACUAUUUUCACCUCUAAAUAUUACGUACUCAGUAGUGCCCUGCUUCUAGGGCUCUGAAUACGGGCUUAAAGUCAUCUUGUCCUGCUGGAAUUUGCUGUGCAGAGCCAUA	0.823
CCCUUUCUUGGUGUGUGGGGGAUCUAUGGCCAUCUCCUACCAUGAGGGAGCUACCCAGCUUCCUGUGGUACCAAGGAGUUAUUUUGGAUGAUUAGAAGCACAGAAUGAUC	0.568
GCUGGCUGCCUGCGGGCCUAAGCCUUCCCAGGAUCUUCAGGACACUUGACAGACUUGUGUUUUCUGGUCUGAGCUGCCUCCACAGGUCCCUCCAGCAAGCCUCACUGCAC	2.23
UUAGCUGCAUGUCAUCGGCUCAGCAGUGGGAAGGAAAGGGUACUGCUCUGACCUUGUGUAUUCUGACUCUUUGGAAACCAGGCCCUGCUUUUGCCAAGCCUCCCAUCCUG	1.47
CUGUAAUAAUGUUUGUGAAUCUUGACUGUAACAAUGUUGGGUUAUUUUUUGUUUGUUUGUUUGUUUAAUUAUGUAAAAAAAAACAAAAACAAAAAAAUAAGAAAAGAAAA	2.34
CAUAAUAGGUCCUCUUGUCAGAGAUCCUCUACCACAGACAUUAAUAGCUGAGCAGGAGCCACAUGGAUUGAUUGUAUCCACUCACCAUUGACGAUGGCAUUGAGCGUAGC	0.471
GACCUUGUAUUUAUGAGGCCUCUGUGAGGCCAGCCCCCACCUUCCUCUUUCCCACCUGUCCCAGGACCAGAAUCCCAGGGACAGAGGACUGGGUAGCAGGUUCCUUCUGU	0.294

Excerpt of the above (series 2):
Strand	E-score
CGCCTTCC	-0.235
CTTCGGAA	0.0756
GATTTGCA	0.141
AGACGTGC	-0.0403
TGAGCGAA	-0.0583
CTGGAAAA	0.0693
